Results gathered from unrelated publications.
Parts stem from different laboratories: compare values within a part only.

Series 1 — method: universal PBM; form: double-stranded DNA, one strand shown; matrix: in vitro; tested at: 600 nM; reading: higher = stronger binding
Target: Sal-like protein 4, full length isoform A (SALL4, Homo sapiens, UniProt Q9UJQ4, residues 1-1053)
Sequence of UniProt Q9UJQ4 (whole entry, looked up): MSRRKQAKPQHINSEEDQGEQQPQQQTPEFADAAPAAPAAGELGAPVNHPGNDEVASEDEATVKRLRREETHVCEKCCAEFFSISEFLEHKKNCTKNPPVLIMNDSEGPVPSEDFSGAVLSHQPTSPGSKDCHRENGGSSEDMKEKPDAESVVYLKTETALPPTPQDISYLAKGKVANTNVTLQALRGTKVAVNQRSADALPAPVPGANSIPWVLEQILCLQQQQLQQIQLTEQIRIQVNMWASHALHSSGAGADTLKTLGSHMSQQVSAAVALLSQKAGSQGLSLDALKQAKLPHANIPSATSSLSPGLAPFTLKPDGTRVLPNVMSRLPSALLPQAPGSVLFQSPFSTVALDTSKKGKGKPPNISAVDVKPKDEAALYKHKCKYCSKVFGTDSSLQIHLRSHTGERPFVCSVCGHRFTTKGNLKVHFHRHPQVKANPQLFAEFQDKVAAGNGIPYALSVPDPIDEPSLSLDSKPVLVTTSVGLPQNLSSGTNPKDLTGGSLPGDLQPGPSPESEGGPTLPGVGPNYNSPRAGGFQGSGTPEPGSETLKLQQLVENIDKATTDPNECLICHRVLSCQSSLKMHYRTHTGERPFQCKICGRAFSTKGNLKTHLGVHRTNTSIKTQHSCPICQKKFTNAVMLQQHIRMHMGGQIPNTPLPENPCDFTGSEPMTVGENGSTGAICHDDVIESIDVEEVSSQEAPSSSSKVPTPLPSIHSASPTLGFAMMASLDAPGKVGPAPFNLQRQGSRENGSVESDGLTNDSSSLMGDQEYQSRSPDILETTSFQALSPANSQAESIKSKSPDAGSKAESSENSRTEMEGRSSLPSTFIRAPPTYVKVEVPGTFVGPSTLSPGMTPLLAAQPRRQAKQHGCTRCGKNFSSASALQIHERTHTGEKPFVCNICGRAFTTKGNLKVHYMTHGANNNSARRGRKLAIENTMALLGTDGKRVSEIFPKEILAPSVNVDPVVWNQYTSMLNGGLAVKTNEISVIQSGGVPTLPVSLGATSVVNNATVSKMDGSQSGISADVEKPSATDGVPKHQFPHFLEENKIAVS
Setting: 8-mer, flanks averaged, mean of replicates
Oligonucleotide	E-score
GCTACCAA	0.0536
CTGGGACC	-0.251
CAAGCATC	-0.0899
GTTCCCAA	-0.138
TCATCGAA	0.138
AGTCAATA	0.221
ACATTGCC	-0.0379
AAATCAAC	0.127
CTATTCAG	0.123

Series 2 — method: RNA Bind-n-Seq; form: RNA; matrix: in vitro; tested at: 200 nM; setting: whole 134-nt RNA, ends assumed; with: 150 mM LiCl; baseline: input library; reading: higher = stronger binding; all molecules: 7-deaza-guanosine replaces G
Target: Fragile X messenger ribonucleoprotein 1, C-terminal low-complexity region (Fmr1, Mus musculus, UniProt P35922)
All sequences stand within: GGGAGUUCUACAGUCCGACGAUC … UGGAAUUCUCGGGUGUCAAGG
Oligonucleotide	log2 enrichment
CUCAAGUCCUGUGCUACACAUCGUAUGUACCGAAUCGGGUGGGUGGGAAAGGGAAAGUAUUAUGUUACGCCGUUCGGAUCUGCACUUCCA	0.136
AGUCCUGUGCUACACAUCGUAUGUACCGAAUCGGUUUGGAAAAAAAGGUUUUUUUGGAAAGUAUUAUGUUACGCCGUUCGGAUCUGCACU	-3.09
UCCUGUGCUACACAUCGUAUGUACCGAAUCGGGGUUUUUGGGGUUUUUGGGGAAAGGGGAAAGUAUUAUGUUACGCCGUUCGGAUCUGCA	-0.711
UGUGAGGUGGAUUUUGUUUAUUUUUUUAGCUCAUUUCCAGGGGUGGGAAUUUUUUUUUAAUAUGUGUCAUGAAUAAAGUUGUUUUUGAAA	1.02
UCCUCAAGUCCUGUGCUACACAUCGUAUGUACCGAAUCGGGAGGAGGAGGGAAAGUAUUAUGUUACGCCGUUCGGAUCUGCACUUCCAGC	-2.08
UGUAACCUGGGGAUUCUCUCAACUCUCUUGUCCCACACAGACUUCUAUGAGGAAAUCCAGGAGUUUGUGAAAGAUGUCUUUUCACCUAUA	1.09
UCAAGUCCUGUGCUACACAUCGUAUGUACCGAAUCGGGUUUGGGUUUGGGUGGGAAAGUAUUAUGUUACGCCGUUCGGAUCUGCACUUCC	-1.15
UGGUAAGAAAUCUGCUUGUUUUAUUAAAAUGCUUAAUUGAAGAAAAUAAUAUUCUUCUGUGAUUAAAAUUAGGAAGAAAUAGAACCAUUU	-2.43

Series 3 — method: RNA Bind-n-Seq; form: RNA; matrix: in vitro; tested at: 365 nM; baseline: no-protein control; reading: higher = stronger binding
Target: RNA binding protein fox-1 homolog 2, RRM domain, GST-SBP tag (RBFOX2, Homo sapiens, UniProt O43251-10, residues 100-194)
Setting: natural RNA segment, single round, ends assumed
All sequences stand within: GGGAGUUCUACAGUCCGACGAUC … UGGAAUUCUCGGGUGCCAA
Construct (chain): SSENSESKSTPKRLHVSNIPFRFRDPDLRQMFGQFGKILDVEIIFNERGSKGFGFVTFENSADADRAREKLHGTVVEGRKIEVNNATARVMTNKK
Oligonucleotide	RBNS enrichment (R)
UGUGAGGUCUUGCACAAGCCACGUGGGGCACCUUGGCUUCCCGGCAGGAGGUGGACACCCAGCCAGAGGCCUGGCUCAAGGUGACCUCACCUUCACCAUGGGCUUCCUGG	0.371
AGCACUCUUGGAUUAAUUCAAUUGUUAUUUCUACUCUUUAACAACAGAAUAAGCCAGAUCCUUGACUCUCAAGCCCCCAGUUUUUAAAAACAAGGUGUUCCUUGAUUUAU	1.38
AAACCCCAUCAAGGACCGAGUAUGUGUCUGGUUCCUUGGGUGGGACGAUUCCUGACCACACUGUCCAGCUCUUGCUCUCAUUAAAUGCUCUGUCUCCCGCGGAAAGCUCC	1.58
CAGUUGCUGAGCCUGCUCGUGAACACCAUUGCAAGCCAUUGCUGUCAAGCUUCAUGAGUUAAAUUUAACUGUUAGAGAGGAGAAAAGCAUAGCAGUCAUUUGGAACGAUC	0.424
ACCUAGGCAGCCUUGUAUCCAUAGAAAGCCUCCACUGCUGGGCCGGGGAGGGGGUUGUGGUAAGGGCCCUCUGGAAAUCAAGCAGAGAAUGCCUUUGCAGUGGUCUCCCG	0.413
AGCCACUUGCUGACCCUGGUUCUUAAGGACACAUGACAUUAGUCCAAUCUUUCAAAAUCUUGUCUUAGGGCUUGUGAGGAAUCAGAACUAACCCAGGACUCAGUCCUGCU	0.194
AUCAAAACAGUGAGCACCGUAUGAAUGAGAGCUGAAGAAGGACUUUUAUUUUGUUAUAACAUUGUUACCUUGUCAGUAUUAUUUCAAAGGUUCUUUGAAGAAUAGGGGGG	0.451
UGCCUCCUGGGAUCCUCAUCCCCAAUCCUGCUCUUACAUAAACCUUUUUCUUGUUUUAGUAAUUUGUAGUGAUCACCCCCUUCCCUCUGUUGCUGGGACCCAGGAGGAAA	0.565

Single results of other studies
Molecule	target	test	test system	conditions	scale	measurement	result
PhoQ, residues 284 288 289 292 302 303 TGYLSA	PhoP, residues 12 14 15 18 19 YHFSH (Escherichia coli, UniProt P23836)	Sort-seq, item: YFP reporter	E. coli	PhoQ-PhoP variant library, with: 10 µM Mg2+	baseline: high Mg2+ state, higher = stronger signaling	fold induction	6.48

A few entries again (series 2):
Oligonucleotide	log2 enrichment
AGUCCUGUGCUACACAUCGUAUGUACCGAAUCGGUUUGGAAAAAAAGGUUUUUUUGGAAAGUAUUAUGUUACGCCGUUCGGAUCUGCACU	-3.09
UCAAGUCCUGUGCUACACAUCGUAUGUACCGAAUCGGGUUUGGGUUUGGGUGGGAAAGUAUUAUGUUACGCCGUUCGGAUCUGCACUUCC	-1.15
UCCUCAAGUCCUGUGCUACACAUCGUAUGUACCGAAUCGGGAGGAGGAGGGAAAGUAUUAUGUUACGCCGUUCGGAUCUGCACUUCCAGC	-2.08
